# Results gathered from unrelated publications.
# Numbers after ± are the reported error.
# UniProt P33261, sequence (whole entry, looked up): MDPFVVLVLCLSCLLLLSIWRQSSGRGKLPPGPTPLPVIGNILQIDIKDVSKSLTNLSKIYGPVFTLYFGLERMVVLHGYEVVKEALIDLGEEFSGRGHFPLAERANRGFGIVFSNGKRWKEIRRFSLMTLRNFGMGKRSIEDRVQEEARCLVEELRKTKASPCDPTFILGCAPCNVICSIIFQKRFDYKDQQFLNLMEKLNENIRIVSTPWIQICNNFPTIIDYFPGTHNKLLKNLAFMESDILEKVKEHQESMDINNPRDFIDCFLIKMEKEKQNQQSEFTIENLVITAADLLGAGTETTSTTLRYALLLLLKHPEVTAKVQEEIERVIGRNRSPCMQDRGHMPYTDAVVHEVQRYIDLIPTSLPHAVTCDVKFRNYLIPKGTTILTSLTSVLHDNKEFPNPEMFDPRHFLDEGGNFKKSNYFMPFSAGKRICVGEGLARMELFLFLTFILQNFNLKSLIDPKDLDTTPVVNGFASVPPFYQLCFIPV
SMILES,target or system,test,system,setting,measurement,result
CC(=O)N[C@H](C(=O)N[C@H](C(=O)N[C@@H](CCCNC(=N)N)C(=O)N1Cc2ccccc2C[C@H]1C(=O)N[C@@H](Cc1ccccc1)C(N)=O)C1CCCCC1)C(C)C,human PBMC,"Bio-Plex multiplex, measured: IP-10",,"250 µg/mL, 24 h",cytokine level,1210 ± 961 pg/mL
CS[Se][C@@H]1O[C@H](COC(C)=O)[C@@H](OC(C)=O)[C@H](OC(C)=O)[C@H]1OC(C)=O,Trypanosoma brucei brucei,bioluminescence,bloodstream form,"5 µM, 24 h, 1% DMSO",viability,82.8 ± 12.1%
N=C(N)NCCC[C@@H]1NC(=O)[C@H](Cc2c[nH]c3ccccc23)NC(=O)[C@@H](CC2CCCCC2)NC(=O)[C@@H]2CCCN2C(=O)[C@@H](NC(=O)CCc2ccccc2)CCCNC1=O,,,"C57BL/6J mice, brain","subcutaneous, 1 mg/kg",elimination half-life,32.9 min
C=CC(=O)Nc1cc(Nc2nccc(-c3cn(C)c4ccccc34)n2)c(OCC(F)(F)F)nc1N(C)CCN(C)C,"Cytochrome P450 2C19 (CYP2C19, Homo sapiens, UniProt P33261)","enzyme activity, inhibitor","human, liver microsomes",0.33 µM,activity vs control,108%
[64Cu+2].c1cnc(CNCc2ccc(CN3CCCN4CCNCCCN(CC4)CC3)cc2)nc1,CXCR4,,"NOD/SCID mouse, U87 and U87-stb-CXCR4 xenografts, pancreas","iv, 90 min, ex vivo, together with: AMD3465 25 mg/kg sc before tracer",tissue uptake,0.84 ± 0.14 %ID/g
COc1ccc(-n2c(=O)c(C(=O)C3C(=O)CCCC3=O)nc3c(Cl)cccc32)cc1,Oryza sativa,,seedlings,3 days,parent remaining,~70%
NCC(=O)N1CCC[C@H]1C(=O)N1C[C@H](O)C[C@H]1C(=O)O,iron(III) ion,"complex formation, Van't Hoff plot",aqueous 0.15 M NaCl,MAH−3 complex species,ΔH,123 kcal/mol
O=C(O)CCC(NP(=O)(O)OCCC[C@@H](NC(=O)CC[C@H](NC(=O)CCCCCNC(=O)c1ccc([18F])cc1)C(=O)O)C(=O)O)C(=O)O (stereo partly drawn),CWR22Rv1 tumour model,,"host not given, muscle","1 h, tumour-bearing",tracer uptake,0.112 %ID/g
COc1ccc2c(c1)c(CC(=O)[O-])c(C)n2C(=O)c1ccc(Cl)cc1.COc1ccc2c(c1)c(CC(=O)[O-])c(C)n2C(=O)c1ccc(Cl)cc1.[Co+2].c1c[nH]cn1.c1c[nH]cn1,calf thymus DNA,cyclic voltammetry,DMSO/buffer,"Co(II)/Co(I) couple, with DNA",anodic peak potential,-505 mV
O=C([O-])CN1CCN(CC(=O)[O-])CCN(CC(=O)NCCc2ccc3c(c2)C2C=CCC2C(c2cc4c(cc2Br)OCO4)N3)CCN(CC(=O)[O-])CC1.[111In+3] (stereo not drawn),Hec50 tumour model,,"host not given, bone","4 h, tumour-bearing",tracer uptake,0.12 %ID/g
[64Cu+2].c1ccc(CNCc2ccc(CN3CCCN4CCNCCCN(CC4)CC3)cc2)nc1,CXCR4,,"NOD/SCID mouse, U87 xenografts, small intestine","90 min, together with: AMD3465 25 mg/kg sc",tissue uptake,15.1 ± 5.87 %ID/g
Cn1c(=O)oc2ccc(-c3ccc(CC(C#N)NC(=O)C4CNCCCO4)c(F)c3)cc21 (stereo not drawn),,,human,"oral, 40 mg once daily, treatment-related AE, multiple ascending dose",skin exfoliation incidence,0%

# Some of these lines once more:
SMILES,target or system,test,system,setting,measurement,result
[64Cu+2].c1ccc(CNCc2ccc(CN3CCCN4CCNCCCN(CC4)CC3)cc2)nc1,CXCR4,,"NOD/SCID mouse, U87 xenografts, small intestine","90 min, together with: AMD3465 25 mg/kg sc",tissue uptake,15.1 ± 5.87 %ID/g
